Results gathered from unrelated publications.
Each line is one published result; not all experiments were run side by side. ± gives the spread as reported.

For `C[C@H](NC(=O)[C@H](CC(=O)NCC(C)(C)C)NC(=O)c1ccc(C(=O)NO)cc1)C(=O)NCc1ccccc1`, proteasome activity read “inhibited” (HL-60, SEM and SUP-B15r; chymotrypsin-like activity, inhibitor; 4 nM to 25 µM, 2 h).
For `COc1ccc(-c2cc3ccccc3[nH]2)cc1`, the inhibition was 48.6% (RAW264.7; NO release, inhibitor, Griess; 50 µM, 20 h, LPS-stimulated).
`CC[C@@H]1[C@H](F)C(=O)N[C@@H]1COc1nccc2cc(C(N)=O)c(OC)cc12` has an IFN-alpha release of 5.7 ± 2.5 pg/mL (human plasmacytoid dendritic cells; 200 nM, 24 h, added: SLE neutrophil supernatants).
`fMLF analogue`: “pool filling half-life” 4.2 min (rabbit polymorphonuclear leukocytes; 2 x 10 to 8 M, 37 °C, 30 min release).
For `NC(=O)Cn1cc(COc2ccccc2-c2nc(-c3ccccc3)no2)nn1`, the mRNA level was 0.27 ± 0.01 fold (A549; qPCR, item: mTOR; IC50, 24 h; baseline: untreated cancer cells).
For `Brc1ccc2[nH]c(-c3ccccc3)cc2c1`, the viability was 91.8 ± 8.7% (RAW264.7; sulforhodamine B; 50 µM, 20 h; baseline: vehicle).
`COc1cccc2c1C(=O)c1c(O)c3c(c(O)c1C2=O)C[C@@](O)(C(=O)CO)C[C@@H]3O[C@H]1C[C@H](N)[C@H](O)[C@H](C)O1` gave a mRNA level of 0.16 ± 0.002 fold (Caco-2; qPCR, item: mTOR; IC50, 24 h; baseline: untreated).
For `CO[C@@H]1[C@H](O)[C@@H](COP(=O)(O)OP(=O)([O-])OP(=O)(O)OP(=O)(O)OC[C@H]2O[C@@H](n3cnc4c(=O)[nH]c(N)nc43)[C@H](O)[C@@H]2O)O[C@H]1n1c[n+](C)c2c(O)nc(N)nc21`, “relative translation efficiency” read 1.25 ± 0.15 (human immature dendritic cells; reporter gene; cap on electroporated luciferase mRNA; baseline: beta-S-ARCA D1 capped mRNA).
With `c1ccc(Cc2c(-c3ccccc3)n(Cc3ccccc3)c3ccccc23)cc1` the viability was 101 ± 6.1% (RAW264.7; sulforhodamine B; 50 µM, 20 h; baseline: vehicle).
`NNC(=O)Cn1cc(COc2ccccc2-c2nc(-c3ccccc3)no2)nn1` has a mRNA level of 0.32 ± 0.09 fold (Caco-2; qPCR, item: mTOR; IC50, 24 h; baseline: untreated cancer cells).
The cell uptake of `N=C(N)NCCC[C@H](NC(=O)[C@@H]1CSSC[C@H](NC(=O)[C@H](Cc2ccc3ccccc3c2)NC(=O)[C@H](CCCNC(=N)N)NC(=O)[C@H](CCCNC(=N)N)NC(=O)CN2CCN(CC(=O)O)CCN(CC(=O)O)CC2)C(=O)N[C@@H](Cc2ccc(O)cc2)C(=O)N[C@@H](CCCNC(N)=O)C(=O)N[C@@H](CCCCN)C(=O)N[C@H](CCCCN)C(=O)N2CCC[C@H]2C(=O)N[C@@H](Cc2ccc(O)cc2)C(=O)N[C@@H](CCCNC(=N)N)C(=O)N[C@@H](CCCNC(N)=O)C(=O)N1)C(N)=O` [fluorine-18 labelled] is reported as 26.4 ± 0.57% (CHO expressing CXCR4; 15 min, 37 °C; baseline: added activity).
